{"data": "Earlier results, collected from citations in different studies", "B1": "CCL1; sequence looked up; chain KSMQVPFSRCCFSFAEQEIPLRAILCYRNTSSICSNEGLIFKLKRGKEACALDTVGWVQRHRKMLRHCPSKRK", "note": "Each line is one published result; not all experiments were run side by side. ± gives the spread as reported."}
{"Molecule": "semaglutide", "test system": "rat", "measurement": "half-life", "value": "~10 h"}
{"Molecule": "MCFCFKAGPKICRGLQRKKKKKFKYQTSFTKTGFGTLHTKPKSPAR", "target or system": "Escherichia coli", "test system": "peptide", "measurement": "MIC", "value": "50 µM"}
{"Molecule": "octreotide", "conditions": "oral, concentration not given", "measurement": "half-life", "value": "~2.5 h"}
{"Molecule": "KDMDKVETFLR", "test": "isocratic RP-HPLC, C18 column", "test system": "peptide, water/acetonitrile, 0.1% TFA", "conditions": "25 °C", "measurement": "retention coefficient S", "value": 16.8}
{"Molecule": "AAEQNPIYWARYADWLFTTPLLLLDLALLVDADEGTCG", "test system": "peptide, POPC membrane", "measurement": "pH50 of membrane insertion", "value": "~6.1"}
{"Molecule": "[18F]AlF-NOTA-octreotide", "test system": "human plasma", "conditions": "1 h", "measurement": "remaining intact compound", "value": "97.9 ± 1.1%"}
{"Molecule": "teicoplanin", "test system": "healthy human subjects", "measurement": "half-life", "value": "44.1 h"}
{"Molecule": "pegcetacoplan", "test system": "human", "conditions": "30 mg/day for 28 days (0.43 mg/kg), arithmetic mean", "measurement": "Cmax", "value": "77 µg/mL"}
{"Molecule": "SNLQLLR", "test": "isocratic RP-HPLC, C18 column", "test system": "peptide, water/acetonitrile, 0.1% TFA", "conditions": "25 °C", "measurement": "retention coefficient S", "value": 22.3}
{"Molecule": "ivermectin", "measurement": "logD", "value": 6.61}
{"Molecule": "DLEEGIQTLMGR", "test": "isocratic RP-HPLC, C18 column", "test system": "peptide, water/acetonitrile, 0.1% TFA", "conditions": "25 °C", "measurement": "retention coefficient S", "value": 22.7}
{"Molecule": "colistin", "test system": "aqueous solution", "conditions": "4 °C", "measurement": "stability time", "value": "60 days"}
{"Molecule": "B1 (CCL1)", "target or system": "CCR8 Q91W mutant", "test": "IP accumulation, agonist", "measurement": "EC50", "value": "69 nM"}
{"Molecule": "Ac-LRKLRKRLLRDWLKAFYDKVAEKLKEAF-NH2 (N-acetyl, C-amide)", "test system": "peptide, egg PC-water interface", "conditions": "lipid affinity", "measurement": "surface pressure", "value": "45 dyn/cm"}
{"Molecule": "GVLDNLKSAAKDLAGHLATKVIKKI", "target or system": "Staphylococcus aureus", "test system": "peptide, ATCC 33591", "measurement": "MIC", "value": "8 µg/mL"}
{"Molecule": "TGQIFK", "test": "isocratic RP-HPLC, C18 column", "test system": "peptide, water/acetonitrile, 0.1% TFA", "conditions": "25 °C", "measurement": "retention coefficient S", "value": 14.2}
{"Molecule": "pyridoxine", "conditions": "acidic", "measurement": "pKa", "value": 5}
{"note": "Excerpt of the above:"}
{"Molecule": "octreotide", "conditions": "oral, concentration not given", "measurement": "half-life", "value": "~2.5 h"}
{"Molecule": "pyridoxine", "conditions": "acidic", "measurement": "pKa", "value": 5}
